Assay results collected from several papers.
Numbered parts are unrelated; each lists some results of a single study. Positions count from the first letter of the parent shown.

Sample 1 — target: NFE2L1, bZIP domain (human); method: DHFR protein complementation; matrix: yeast; relative to: wild-type JUN-FOS pair; direction: higher = stronger binding; quantity: binding fitness
Setting: single substitutions, most at no-binding floor
Parent: JUN, bZIP domain (human); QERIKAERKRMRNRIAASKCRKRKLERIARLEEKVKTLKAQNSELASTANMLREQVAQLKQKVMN; partner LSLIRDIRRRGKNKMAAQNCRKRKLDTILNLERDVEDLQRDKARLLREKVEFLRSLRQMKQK
L31I: -1.48 natural log
I28N: -1.37 natural log
L45P: -1.47 natural log
A57K: -1.5 natural log
L45H: -1.5 natural log
T48P: -1.48 natural log
R30C: -1.51 natural log
S43I: -1.64 natural log
A29D: -1.28 natural log
A29E: -1.58 natural log
A46Q: -1.53 natural log
Q55L: -1.54 natural log
E54I: -1.38 natural log
A46R: -1.41 natural log
T48A: -1.47 natural log
L45G: -1.49 natural log
E54D: -1.48 natural log
A57H: -1.15 natural log

Sample 2 — method: RNA Bind-n-Seq; molecule type: RNA; matrix: in vitro; concentration: not given; relative to: input RNA pool; direction: higher = stronger binding; quantity: bound/input enrichment
Target: RING finger protein unkempt homolog, zinc fingers 1-6, GST-SBP tag (UNK, Homo sapiens, UniProt Q9C0B0, residues 30-357)
Chain of UniProt Q9C0B0 (30-357, looked up): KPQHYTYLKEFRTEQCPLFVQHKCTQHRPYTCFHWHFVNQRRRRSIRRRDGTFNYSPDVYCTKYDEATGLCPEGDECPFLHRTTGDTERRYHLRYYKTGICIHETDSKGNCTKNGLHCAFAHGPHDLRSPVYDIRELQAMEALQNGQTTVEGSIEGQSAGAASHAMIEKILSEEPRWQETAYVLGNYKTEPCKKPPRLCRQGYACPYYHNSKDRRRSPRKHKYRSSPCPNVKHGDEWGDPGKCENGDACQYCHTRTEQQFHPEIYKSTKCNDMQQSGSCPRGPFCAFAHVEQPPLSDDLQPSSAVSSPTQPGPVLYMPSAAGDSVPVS
Setting: RNA with constant flanks, human and mouse sites, ends assumed
Constant ends, left off below: GGGAGUUCUACAGUCCGACGAUC … CAACAGAGGAUUGAGCAUCA
CACCACCACCACCACCACCCGUGCAGUUUCACAUGGAAGCUUGUACCUGUGUUACCUCUGUAGUAAGUUGCAUGUGCGAAGUAUAACCAAAGCGAUCAUGUUUAUGUUGACCCUGCCAUA: 0.286 ratio
CUGUCCGAACGAUCGGGAUAGGAGCGGUCCCUGCGCUUGCUGCUGGGAAGUGGUACAAUCAUGUUUGAAAUUAAGAAGAUCUGUUGCAUCGGUGCAGGCUAUGUUGGAGGACCCACAUGU: 0.409 ratio
UUGCUACUGACUCCCUGGGUCAAGUUCCUGUGGGAAUCAUACAGGCAGUGUUUGGACCUUCUUCGAAACAAUUCUAGAGUAGAGCGCCUUUACCAUGAUAUCGCCCAACAAGCUUUCAAA: 0.156 ratio
UUCGAUGUGAGAAUUGAACGAGAUGCACAAGAAAUGGCUGAUAGUUUAGGAGUUAGAAUUUUUAGUGCAGAAAUUAUUUAUCAUUUAUUUGAUGCCUUUACAAAAUAUAGACAAGACUAC: 43.5 ratio
AUGCUGGGCAAGCGACCUCGGAGAAAGAGCAGUCGUAGAAAGAAGGCCGUGUCUGCCCCAGCCGGCUAUCCAGAGGGGUCCGUGAUUGAGGCCUGGGUGGCCGAAGAGGAAGAUGAUAAC: 0.29 ratio
GUACUGCUGGUCCUGUACCAGAAACAUUUUCUUUUAUUGUUACUUGCUUUUUAAACUUUGUUUAGCCACUUAAAAUCUGCUUAUGGCACAAUUUGCCUCAAAAUCCAUUCCAAGUUGUAU: 1.42 ratio
CCCCCCCCCCCCCCGGCGUCUGGCGACCCAGCGUGGAGCGAGGCCCCGCCGGGGGCGGCCAUGCGGCGGUGACAGGAGCACGGCCGAGACGCACGGGCCCCCCUCGCCCUCUCACCUCCA: 1.32 ratio
CAUAGGCCUGGGCUAGAGUGUCAAUGGCAGCCAGGGGUCUUCUCCAUCUCCAGAGGCCUUUAUAGAGCCGGCCAGAAUAUACAUUCCCUUCUGGCAAAAACCACUGGCACCCAGGAUCAU: 0.206 ratio
GGUGGCCAGAACCCAGGGACCAUUGGAUUUCAAAGCUUGCUUUUUCUGUUGGUUCUUCUCUCUCCUUCUCUCUCUGUCUCUCCCAUUCUCCUGCCCAUGCAUGAAAGGAUCCUCCACCUU: 0.245 ratio
GUGGCUGCUUUCUUUGGUACUCUCUCUCCACUCCCAACGUAGCUGUGACGUGUUGUAGUUUUUAGCUGUUUGUAAAAUGUUAAAAAAAAAAAAAGUUAAAAGGAAGUUAAACUAACCACA: 2.16 ratio
CAUAAUUAUGGUGCUCGUCCUCCUCCGACACCUCCGGCUUCCCCUCCUCCAUCAGUCCUUAUUAGCAAAAAUGAAGUAGGCAUAUUUACCACUCCUAAUUUUGAUGAAACUUCCAGUGCU: 2.31 ratio

Sample 3 — target: UBE2H UBC core domain (UniProt P62256); method: yeast two-hybrid; matrix: yeast; setting: mostly zero background; relative to: not given; direction: higher = stronger interaction; quantity: lacZ reporter activity
Chain of UniProt P62256 (whole entry, looked up): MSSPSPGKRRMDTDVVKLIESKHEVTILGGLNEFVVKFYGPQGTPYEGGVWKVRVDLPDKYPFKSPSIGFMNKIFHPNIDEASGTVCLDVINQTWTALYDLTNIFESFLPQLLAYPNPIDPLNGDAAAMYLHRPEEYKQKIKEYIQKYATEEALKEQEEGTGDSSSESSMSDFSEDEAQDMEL
B1: TRIM3 RING domain (UniProt O75382); chain VQPMDKQFLVCSICLDRYQCPKVLPCLHTFCERCLQNYIPAQSLTLSCPVCRQTSILPEQGV
B2: RNF150 RING domain (UniProt Q9ULK6); chain DKETESDFDNCAVCIEGYKPNDVVRILPCRHLFHKSCVDPWLLDHRTCPMCKMNILKALGIP
B3: RNF149 RING domain (UniProt Q8NC42); chain EKGIDVDAENCAVCIENFKVKDIIRILPCKHIFHRICIDPWLLDHRTCPMCKLDVIKALGYW
B4: RNF43 RING domain (UniProt Q68DV7); chain SGSSCSSAPVCAICLEEFSEGQELRVISCLHEFHRNCVDPWLHQHRTCPLCMFNITEGDSFS
B5: RNF32 RING domain (UniProt Q9H0A6); chain SLLQGDSVQPCPICKEEFELRPQVLLSCSHVFHKACLQAFEKFTNKKTCPLCRKNQYQTRVIH
B6: RNF112 RING domain (UniProt Q9ULX5); chain QPMAPRELPTCSICLERLRDPISLDCGHDFCIRCFSTHRLPGCEPPCCPECRKICKQKRGLR
B7: UBE4A RING domain (UniProt Q14139); chain LQQQEEETYADACDEFLDPIMSTLMCDPVVLPSSRVTVDRSTIARHLLSDQTDPFNRSPLTMDQIRPNTELKEKIQRWLAERKQQKEQLE
B8: TRIM52 RING domain (UniProt Q96A61); chain PMQTLQEEAVCAICLDYFKDPVSISCGHNFCRGCVTQLWSKEDEEDQNEEEDEWEEEEDEEAV
B9: PHF7 RING domain (UniProt Q9BWX1); chain IQHGHVGEESCILCCEDLSQQSVENIQSPCCSQAIYHRKCIQKYAHTSAKHFFKCPQCNNRKEFPQEML
B10: ANKIB1 RING domain (UniProt Q9P2G1); chain LSPGDLDTSLCDICMCSISVFEDPVDMPCGHDFCRGCWESFLNLKIQEGEAHNIFCPAYDCFQLVPVDIIE
B11: RNF4 RING domain (UniProt P78317); chain TGLRPSGTVSCPICMDGYSEIVQNGRLIVSTECGHVFCSQCLRDSLKNANTCPTCRKKINHKRYHP
B1 (TRIM3 RING domain): 0
B2 (RNF150 RING domain): 0
ISNDSETLEECMVCSDMKRDTLFGPCGHIATCSLCSPRVKKCLICKEQVQSRTKIE (MIB1 RING domain (UniProt Q86YT6)): 0
B3 (RNF149 RING domain): 0
KIKDLNEHIVCCLCAGYFVDATTITECLHTFCKSCIVKYLQTSKYCPMCNIKIHETQPLL (PCGF1 RING domain (UniProt Q9BSM1)): 0
B4 (RNF43 RING domain): 0
B5 (RNF32 RING domain): 0
B6 (RNF112 RING domain): 0
KRQCSDVDDICSICQAEFQKPILLICQHIFCEECMTLWFNREKTCPLCRTVISDHINKW (RNFT1 RING domain (UniProt Q5M7Z0)): 0
B7 (UBE4A RING domain): 0
FLKKLEQSFMCVCCQELVYQPVTTECFHNVCKDCLQRSFKAQVFSCPACRHDLGQNYIMI (UHRF2 RING domain (UniProt Q96PU4)): 0
B8 (TRIM52 RING domain): 0
B9 (PHF7 RING domain): 0
B10 (ANKIB1 RING domain): 0
B11 (RNF4 RING domain): 2490
SYEDKSNDFVCPICFDMIEEAYMTKCGHSFCYKCIHQSLEDNNRCPKCNYVVDNIDHLY (COP1 RING domain (UniProt Q8NHY2)): 0

Sample 4 — method: DHFR PCA, deep sequencing; matrix: yeast; added: (+)-ABA 0.11 µM; relative to: wild-type fitted maximum; direction: higher = stronger binding; quantity: relative binding score
Target: ABI1, truncated, D143A, DHFR fusion (Arabidopsis thaliana)
Setting: methotrexate growth selection, single substitutions
Parent: PYL1, truncated, DHFR fusion (Arabidopsis thaliana); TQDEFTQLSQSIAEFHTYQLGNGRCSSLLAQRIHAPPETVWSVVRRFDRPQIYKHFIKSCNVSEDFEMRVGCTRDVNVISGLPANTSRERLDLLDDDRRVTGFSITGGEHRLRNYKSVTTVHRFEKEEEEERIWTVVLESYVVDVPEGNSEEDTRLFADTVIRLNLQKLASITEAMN
E127T: 35.1%
N149H: 37.4%
F56R: -0.395%
R99S: -2.34%
K58Y: 1.94%
A30F: 26.1%
V142A: 20.2%
F56P: 3.41%
L28I: 65.2%
E4R: 5.32%
Y18A: 2.08%
T86N: 35.7%
S27I: -4.7%
F103E: -10.7%
T120G: -2.85%
I57F: -0.424%
L93F: 8.96%
N61K: 61.2%
L93D: -5.63%
C60K: -4.67%
L112Y: 3.16%
T39V: 56.1%
R163E: 6.92%
A170S: 4.95%
Y53I: -4.87%

Sample 5 — target: CCNB1, cyclin fold, Cln2 fusion (human); method: yeast growth competition, sequencing; matrix: yeast; setting: weak parent motif; relative to: not given; direction: higher = stronger binding; quantity: normalised enrichment score
Parent: DTL docking peptide (human); PSSMRKICTYFHR
PSSMRKICTAFHR [Y10A]: 0.128
PSSMRAICTYFHR [K6A]: 0.197
PSSMRKACTYFHR [I7A]: 0.12
ASSMRKICTYFHR [P1A]: 0.108
PSSARKICTYFHR [M4A]: 0.12
PASMRKICTYFHR [S2A]: -0.0352
PSAMRKICTYFHR [S3A]: 0.267
